Assay results of several laboratories.
Each numbered part is a random draw from the data of one study; scales do not carry over between parts. Changes are numbered by the printed parent chain.

Set 1 — technique: RNA Bind-n-Seq; form: RNA; medium: in vitro; concentration: 20 nM; notes: 6-mer, flanks averaged, single round; with: 150 mM KCl; baseline: input library; reading: higher = stronger binding; endpoint: 6-mer enrichment (R)
Target: TAR DNA-binding protein 43, full length, His tag (TARDBP, Homo sapiens, UniProt Q13148, residues 1-414)
UACCAU: 0.585
CCAACA: 0.648
AGUGGC: 1.49
GCAUAA: 0.743
AGUGCA: 0.897
CUGUGG: 1.44
UUCAAU: 0.566
UAUAAA: 0.687
CAAGCG: 1.03

Set 2 — target: CCNB1, cyclin fold, Cln2 fusion (human); technique: yeast growth competition, sequencing; medium: yeast; notes: weak parent motif; baseline: not given; reading: higher = stronger binding; endpoint: normalised enrichment score
Starting sequence: CDC6 docking peptide (human); TLKGRRLVFDNQL
TLKGARAVFDNQL [R5A L7A]: 0.212
TLKKRRLVFDNQL [G4K]: -0.449
TLKGRRMVFDNQL [L7M]: 0.111
TLRGRRLVFDNQL [K3R]: 0.266
TLKGTRLVFDNQL [R5T]: 0.739
TLKQRRLVFDNQL [G4Q]: 0.499
TLKGRRLVFDRQL [N11R]: 0.639
TCKGRRLVFDNQL [L2C]: 0.521
HLKGRRLVFDNQL [T1H]: 0.264
DLKGRRLVFDNQL [T1D]: -0.798
TLKGRRLVFHNQL [D10H]: -0.372
TLFGRRLVFDNQL [K3F]: 0.161
TLLGRRLVFDNQL [K3L]: -0.0102

Set 3 — technique: RNA Bind-n-Seq; form: RNA; medium: in vitro; concentration: 365 nM; baseline: no-protein control; reading: higher = stronger binding; endpoint: RBNS enrichment (R)
Target: RNA binding protein fox-1 homolog 2, RRM domain, GST-SBP tag (RBFOX2, Homo sapiens, UniProt O43251-10, residues 100-194)
Notes: natural RNA segment, single round, ends assumed
All sequences stand within: GGGAGUUCUACAGUCCGACGAUC … UGGAAUUCUCGGGUGCCAA
Construct (chain): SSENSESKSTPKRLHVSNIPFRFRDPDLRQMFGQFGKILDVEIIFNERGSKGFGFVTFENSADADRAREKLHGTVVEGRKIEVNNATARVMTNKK
CGGACACUGUUGGGAACCAAACUCUGUCUUGGAGCCUCCUUUUAGCUCACUCCACAAGUAAAUGGAUUUAAUCAAAGGUCACCUAUCUGCUUUUGAUUGUCUAGGUCACA: 0.265
UUUAUCUUUCUAAAUCAUUUUCUGAAGCUGACUUGCUCUAGGGUGCUUCAUCACCACUUCCAUCUUGCAUCACCUUAUAACUGUUCUGUCUUGUUCUCUCCCAGCAAUUU: 0.492
GUGCCCUGAAAACUUGAAGGUUAACCCAAACUGUCAAGAUUUAGGAUAGUCAAGAAAAGGUUUAACUAGUUUUAGUAUCAGACUUUAAAAUUUCUUAAAGAUUUUGGUAA: 0.358
GAUGUGACAUUUGGGAUUCCCCAUCACUUGUCAUGCCCUCAGCACCCAGCUUGUGCCAUUGGGCAUUGAUGGCAUUGAACUAGAGCGAGUGCCUGCCUCGGCUGUGGCAC: 0.426
UCAAACCUGUGUCUCGCUCUAUAUGCACUUUGUUUACUCUUUAUACAAUAAACAUACUAAAGACUUCCAUGCAUAUGCCUUUUAAUAUUAAGCUUGCAUCUUGAAAAGCA: 17.4
GCAUUGUAAUCGCUUGGUUAAUUGUCCGACAUUGGUCCAGGAACAACUUGUCUUUUCAGCCGGCUGACCUGCAGCCUGUACAGCUCUGAAGCAUCUUUAAAUACGAUAGA: 0.976
AAUGAACAUAGCCAGUUCCUACCCAACCCUGCCCUGCCUUUUUUUUUUUUUUUAAAGUGUGGUCCUGUGCUUUCAAAGUAAGUACAGUUCUCUAUGACCAGGCACUUAAA: 1.23
GGGGAGCAGGCUCAGGCUUCCCCAGCCCCAUCCCAAGCCCUUCAGUGCCAAAAACAAAGAAAUGAAACACCGCCUCCAACCACCACAACCAUAUGGAGGGCAAUUCAGCC: 0.838
UCCUCUUUCUUGUAGCCUUUUGACUCAGUGGAAUCGAAGAUACAAUUUUCCUUAGACUACCUAGUGGAGCAGGGAAUACUCUGCAUCUCAGGUAAAAAAAUGAGUACACU: 0.257
CUUUCCUUUUUAUAAAACAACAAAUGGUUCAACUCUGUCUGCAAAUUAACAGCUGAACACCUGCAACUGCAAAUGUUUUUUGAUCCGACGUACUGAAAUAGGAAGUCAUG: 0.39
UCGCUUAAGGAAUCUGCCCCACAGCUUCCCCCAUAGAAGGAUUUCAUGAGCAGAUCAGGACACUUAGCAAAUGUAAAAAUAAAAUCUAACUCUCAUUUGACAAGCAGAGA: 0.332

Further values, each from its own experiment
PhoQ, residues 284 288 289 292 302 303 SLSVQF — fold induction (PhoP, residues 12 14 15 18 19 SPWRL (Escherichia coli, UniProt P23836); Sort-seq, refers to: YFP reporter; E. coli; PhoQ-PhoP variant library, with: 10 µM Mg2+; baseline: high Mg2+ state, higher = stronger signaling): 7.88

Excerpt of the above (set 3):
CUUUCCUUUUUAUAAAACAACAAAUGGUUCAACUCUGUCUGCAAAUUAACAGCUGAACACCUGCAACUGCAAAUGUUUUUUGAUCCGACGUACUGAAAUAGGAAGUCAUG: 0.39
UCGCUUAAGGAAUCUGCCCCACAGCUUCCCCCAUAGAAGGAUUUCAUGAGCAGAUCAGGACACUUAGCAAAUGUAAAAAUAAAAUCUAACUCUCAUUUGACAAGCAGAGA: 0.332
